Experimental data pooled from the literature.
Protocols differ between the studies behind these lines. Numbers after ± are the reported error.
Peptidyl-prolyl cis-trans isomerase NIMA-interacting 4: Peptidyl-prolyl cis-trans isomerase NIMA-interacting 4 (Homo sapiens, UniProt Q9Y237)
Sequence of UniProt Q9Y237 (whole entry, looked up): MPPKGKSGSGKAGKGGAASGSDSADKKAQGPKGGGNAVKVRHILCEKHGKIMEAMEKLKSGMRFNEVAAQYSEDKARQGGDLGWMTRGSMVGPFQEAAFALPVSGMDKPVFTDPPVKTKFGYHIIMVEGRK
Beta-lactamase CTX-M-27: Beta-lactamase CTX-M-27 (Escherichia coli, UniProt Q840M4)
Sequence of UniProt P10415 (whole entry, unmodified, looked up): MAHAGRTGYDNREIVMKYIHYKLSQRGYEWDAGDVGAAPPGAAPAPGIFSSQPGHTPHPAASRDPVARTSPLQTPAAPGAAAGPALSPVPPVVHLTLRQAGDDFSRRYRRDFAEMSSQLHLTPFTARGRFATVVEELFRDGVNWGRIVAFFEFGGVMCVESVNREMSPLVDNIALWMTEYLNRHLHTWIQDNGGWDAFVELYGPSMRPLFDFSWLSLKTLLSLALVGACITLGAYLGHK
Sequence of UniProt Q07741 (whole entry, looked up): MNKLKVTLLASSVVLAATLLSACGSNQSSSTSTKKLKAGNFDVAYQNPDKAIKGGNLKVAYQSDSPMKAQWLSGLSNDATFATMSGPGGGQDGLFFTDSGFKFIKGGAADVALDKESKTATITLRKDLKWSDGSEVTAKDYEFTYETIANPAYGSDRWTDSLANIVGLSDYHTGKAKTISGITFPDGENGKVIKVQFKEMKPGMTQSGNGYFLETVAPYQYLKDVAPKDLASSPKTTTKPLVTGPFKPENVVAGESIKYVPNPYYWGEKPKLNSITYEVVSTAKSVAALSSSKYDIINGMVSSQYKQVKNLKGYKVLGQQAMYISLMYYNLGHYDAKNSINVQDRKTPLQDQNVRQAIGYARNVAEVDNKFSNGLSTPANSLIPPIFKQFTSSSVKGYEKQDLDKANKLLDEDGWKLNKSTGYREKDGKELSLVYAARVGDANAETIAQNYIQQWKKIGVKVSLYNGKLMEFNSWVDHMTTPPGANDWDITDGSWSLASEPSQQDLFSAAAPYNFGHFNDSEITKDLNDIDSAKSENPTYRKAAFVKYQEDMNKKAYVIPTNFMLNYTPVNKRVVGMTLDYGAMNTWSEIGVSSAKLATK
Sequence of UniProt P02679 (whole entry, unmodified, looked up): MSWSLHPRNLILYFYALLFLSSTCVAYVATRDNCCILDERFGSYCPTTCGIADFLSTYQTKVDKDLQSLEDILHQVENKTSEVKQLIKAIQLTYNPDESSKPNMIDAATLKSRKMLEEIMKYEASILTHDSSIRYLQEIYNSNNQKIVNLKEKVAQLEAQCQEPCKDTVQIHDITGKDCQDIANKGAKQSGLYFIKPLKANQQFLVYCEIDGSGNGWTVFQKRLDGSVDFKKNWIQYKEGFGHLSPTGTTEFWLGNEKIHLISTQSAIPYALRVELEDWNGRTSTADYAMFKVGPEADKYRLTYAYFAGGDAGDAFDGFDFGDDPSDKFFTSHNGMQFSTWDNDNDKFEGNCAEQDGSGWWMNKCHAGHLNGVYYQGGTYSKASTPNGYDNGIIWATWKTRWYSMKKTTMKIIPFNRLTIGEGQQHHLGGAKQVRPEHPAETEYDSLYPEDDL
Sequence of UniProt Q16762 (whole entry, looked up): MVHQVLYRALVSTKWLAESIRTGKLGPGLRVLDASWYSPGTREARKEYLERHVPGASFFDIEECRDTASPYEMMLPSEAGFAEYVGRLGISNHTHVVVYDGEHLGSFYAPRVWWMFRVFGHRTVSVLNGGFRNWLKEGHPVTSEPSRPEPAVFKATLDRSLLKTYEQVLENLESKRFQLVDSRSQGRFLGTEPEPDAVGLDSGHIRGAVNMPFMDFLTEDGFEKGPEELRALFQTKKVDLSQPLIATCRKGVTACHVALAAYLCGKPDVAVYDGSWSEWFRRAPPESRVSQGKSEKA
Sequence of UniProt B9K712 (whole entry, unmodified, looked up): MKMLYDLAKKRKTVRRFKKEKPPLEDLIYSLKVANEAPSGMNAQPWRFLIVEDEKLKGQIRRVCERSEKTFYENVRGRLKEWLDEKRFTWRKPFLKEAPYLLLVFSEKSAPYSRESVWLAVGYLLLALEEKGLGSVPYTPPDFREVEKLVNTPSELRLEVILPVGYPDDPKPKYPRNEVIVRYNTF
Sequence of UniProt Q8JGN5 (whole entry, looked up): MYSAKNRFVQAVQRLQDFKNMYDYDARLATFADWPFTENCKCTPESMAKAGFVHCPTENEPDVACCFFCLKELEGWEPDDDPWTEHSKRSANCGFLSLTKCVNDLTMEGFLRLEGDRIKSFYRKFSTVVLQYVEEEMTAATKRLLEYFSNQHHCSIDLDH
Sequence of UniProt P02671 (whole entry, unmodified, looked up): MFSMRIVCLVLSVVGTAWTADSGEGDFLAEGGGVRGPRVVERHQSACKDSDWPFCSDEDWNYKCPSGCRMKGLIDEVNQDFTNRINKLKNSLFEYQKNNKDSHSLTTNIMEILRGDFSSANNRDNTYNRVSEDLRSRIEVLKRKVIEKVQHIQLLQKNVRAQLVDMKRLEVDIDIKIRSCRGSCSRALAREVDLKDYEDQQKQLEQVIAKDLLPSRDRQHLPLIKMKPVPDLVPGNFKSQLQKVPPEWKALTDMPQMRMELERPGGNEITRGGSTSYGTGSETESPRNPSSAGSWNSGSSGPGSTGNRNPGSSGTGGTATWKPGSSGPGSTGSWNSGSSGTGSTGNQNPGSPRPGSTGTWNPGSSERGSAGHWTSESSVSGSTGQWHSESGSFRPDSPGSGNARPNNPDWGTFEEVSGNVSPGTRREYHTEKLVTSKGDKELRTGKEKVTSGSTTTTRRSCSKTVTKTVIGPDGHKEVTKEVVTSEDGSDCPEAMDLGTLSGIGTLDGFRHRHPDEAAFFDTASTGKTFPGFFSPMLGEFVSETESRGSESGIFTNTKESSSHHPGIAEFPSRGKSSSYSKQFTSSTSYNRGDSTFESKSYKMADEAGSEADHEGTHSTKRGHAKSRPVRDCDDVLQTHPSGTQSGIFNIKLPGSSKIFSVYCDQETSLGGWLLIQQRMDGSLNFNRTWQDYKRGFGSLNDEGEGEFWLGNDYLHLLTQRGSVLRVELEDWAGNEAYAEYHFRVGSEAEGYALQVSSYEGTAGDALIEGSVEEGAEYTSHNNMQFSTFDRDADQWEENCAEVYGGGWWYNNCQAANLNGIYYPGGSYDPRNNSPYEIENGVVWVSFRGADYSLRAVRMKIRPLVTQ
Sequence of UniProt Q06911 (whole entry, looked up): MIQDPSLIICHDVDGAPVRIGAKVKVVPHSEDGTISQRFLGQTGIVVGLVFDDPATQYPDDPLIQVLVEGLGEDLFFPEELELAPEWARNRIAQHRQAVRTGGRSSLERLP
Sequence of UniProt Q9WYW0 (whole entry, looked up): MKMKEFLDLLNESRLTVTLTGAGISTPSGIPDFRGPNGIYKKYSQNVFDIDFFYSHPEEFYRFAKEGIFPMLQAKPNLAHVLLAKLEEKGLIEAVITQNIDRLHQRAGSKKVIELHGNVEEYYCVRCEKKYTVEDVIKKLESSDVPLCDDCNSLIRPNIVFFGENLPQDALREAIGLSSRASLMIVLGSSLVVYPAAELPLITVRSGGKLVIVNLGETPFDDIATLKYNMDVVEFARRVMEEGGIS
Sequence of UniProt P18031 (whole entry, looked up): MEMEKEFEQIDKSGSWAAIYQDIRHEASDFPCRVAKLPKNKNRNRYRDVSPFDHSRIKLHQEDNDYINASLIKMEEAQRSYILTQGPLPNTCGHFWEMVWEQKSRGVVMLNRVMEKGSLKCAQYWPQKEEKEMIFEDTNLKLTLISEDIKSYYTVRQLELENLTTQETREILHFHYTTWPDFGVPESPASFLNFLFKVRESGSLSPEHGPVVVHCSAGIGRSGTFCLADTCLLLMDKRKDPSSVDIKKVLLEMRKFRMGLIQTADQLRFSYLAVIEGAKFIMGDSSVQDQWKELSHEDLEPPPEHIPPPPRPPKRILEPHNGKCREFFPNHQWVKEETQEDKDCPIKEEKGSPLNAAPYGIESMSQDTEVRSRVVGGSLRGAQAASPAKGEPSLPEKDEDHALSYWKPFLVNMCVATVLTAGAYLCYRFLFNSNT
Sequence of UniProt P02699 (whole entry, looked up): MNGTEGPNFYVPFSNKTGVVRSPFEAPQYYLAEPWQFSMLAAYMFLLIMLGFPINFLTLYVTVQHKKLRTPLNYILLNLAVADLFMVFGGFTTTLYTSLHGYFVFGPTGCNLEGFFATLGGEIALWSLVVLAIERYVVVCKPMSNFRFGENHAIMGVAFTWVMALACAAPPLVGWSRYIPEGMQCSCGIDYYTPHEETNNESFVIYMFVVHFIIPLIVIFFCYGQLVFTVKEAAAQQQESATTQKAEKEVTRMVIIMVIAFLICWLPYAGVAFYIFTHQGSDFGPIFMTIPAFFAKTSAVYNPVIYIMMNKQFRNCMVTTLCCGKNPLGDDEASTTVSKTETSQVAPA
Sequence of UniProt P02675 (whole entry, unmodified, looked up): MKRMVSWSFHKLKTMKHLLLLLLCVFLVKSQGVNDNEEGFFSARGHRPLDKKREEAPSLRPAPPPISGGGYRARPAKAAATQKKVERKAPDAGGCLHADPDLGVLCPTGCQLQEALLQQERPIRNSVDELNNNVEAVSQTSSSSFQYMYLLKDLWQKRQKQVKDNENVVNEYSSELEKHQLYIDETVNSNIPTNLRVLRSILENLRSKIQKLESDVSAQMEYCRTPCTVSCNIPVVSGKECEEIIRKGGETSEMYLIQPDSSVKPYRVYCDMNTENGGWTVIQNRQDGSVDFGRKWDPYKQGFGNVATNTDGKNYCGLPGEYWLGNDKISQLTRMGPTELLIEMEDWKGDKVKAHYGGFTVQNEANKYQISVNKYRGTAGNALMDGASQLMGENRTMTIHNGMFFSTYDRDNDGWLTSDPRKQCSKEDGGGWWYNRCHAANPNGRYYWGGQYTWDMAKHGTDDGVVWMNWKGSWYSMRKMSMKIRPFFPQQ
Sequence of UniProt Q13526 (whole entry, unmodified, looked up): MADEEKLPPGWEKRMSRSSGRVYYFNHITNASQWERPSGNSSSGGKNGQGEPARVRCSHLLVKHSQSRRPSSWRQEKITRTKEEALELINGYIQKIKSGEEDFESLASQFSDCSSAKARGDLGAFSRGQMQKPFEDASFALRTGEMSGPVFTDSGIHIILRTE

SMILES | target | assay | test system | setting | Kd
N=C(N)NCCC[C@H](NC(=O)[C@H](Cc1ccccc1)NC(=O)[C@@H]1CCCN1C(=O)[C@H](CO)NC(=O)[C@H](Cc1ccccc1)NC(=O)CNC(=O)[C@@H]1CCCN1C(=O)[C@@H]1CCCN1C(=O)[C@@H](N)CCCNC(=N)N)C(=O)N[C@@H](CCCCNS(=O)(=O)c1ccc(C2=c3cc4c5c(c3Oc3c2cc2c6c3CCCN6CCC2)CCC[N+]=5CCC4)c(S(=O)(=O)[O-])c1)C(=O)O | Oligopeptide-binding protein OppA (oppA, Lactococcus lactis subsp. lactis, UniProt Q07741) | binding, fluorescence anisotropy | – | pH 6, 24 °C, with: dye-labelled peptide | 10.4 ± 0.4 µM
C[C@@H](O)[C@H](NC(=O)[C@@H]1CCCN1C(=O)[C@H](COP(=O)(O)O)NC(=O)[C@H](Cc1ccc(O)cc1)NC(=O)[C@H](CO)NC(=O)[C@@H]1CCCN1C(=O)[C@H](COP(=O)(O)O)NC(=O)[C@@H](NC(=O)[C@@H]1CCCN1C(=O)[C@H](COP(=O)(O)O)NC(=O)[C@H](Cc1ccc(O)cc1)NC(=O)[C@H](CO)NC(=O)[C@@H]1CCCN1C(=O)[C@@H](N)CO)[C@@H](C)O)C(=O)N[C@@H](COP(=O)(O)O)C(=O)N1CCC[C@H]1C(=O)N[C@@H](CO)C(=O)N[C@@H](Cc1ccc(O)cc1)C(=O)N[C@@H](CO)C(=O)O | Regulation of nuclear pre-mRNA domain-containing protein 2 (Homo sapiens, UniProt Q5VT52) | binding, ITC | – | pH 7.5 | > 1000 µM
COC(=O)[C@H](Cc1ccccc1)NC(=O)[C@@H]1CCCN1C(=O)[C@H](Cc1c[nH]cn1)NC(=O)[C@H](C)NC(C)=O | Peptidyl-prolyl cis-trans isomerase NIMA-interacting 4 | binding, label-free Epic | PBS | pH 7.4, 0.5% DMSO | 5.7 ± 2.89 µM
CC(=O)NCCCC[C@H](NC(=O)[C@H](CCCCN)NC(=O)[C@H](Cc1c[nH]cn1)NC(=O)[C@H](CCCNC(=N)N)NC(=O)[C@H](CO)NC(=O)[C@@H](NC(=O)[C@H](CO)NC(=O)[C@H](CCC(N)=O)NC(=O)CNC(=O)[C@H](CCCCN)NC(=O)[C@@H](N)CCCCN)[C@@H](C)O)C(=O)N[C@@H](CC(C)C)C(=O)N[C@@H](CCCCN)C(=O)N[C@@H](Cc1ccccc1)C(=O)N[C@@H](CCCCN)C(=O)N[C@H](C(=O)N[C@@H](CCC(=O)O)C(=O)NCC(=O)O)[C@@H](C)O | NAD-dependent protein deacetylase (cobB, Thermotoga maritima, UniProt Q9WYW0) | acetylated p53 peptide binding, intrinsic tyrosine fluorescence | – | pH 9.2, target 0.4 µM | 27.8 µM
CC(=O)N(Cc1ccccc1)[C@@H](C)C(=O)N(C)CC(=O)N(Cc1c[nH]c2cc(Cl)ccc12)[C@@H](C)C(=O)N(C)CC(=O)N(CCC(C)(C)C)[C@@H](C)C(=O)N1CCNCC1 | E3 ubiquitin-protein ligase Mdm2 (MDM2, Homo sapiens, UniProt Q00987) | binding, ITC | – | – | 1.63 µM
CC(=O)N[C@H]1CCCCn2cc3ccccc3c2SC[C@@H](C(N)=O)NC(=O)[C@H](CCCNC(=N)N)NC(=O)[C@H](C)NC(=O)[C@H](Cc2c[nH]c3ccccc23)NC(=O)[C@H](Cc2c[nH]cn2)NC(=O)[C@H](CC(C)C)NC(=O)[C@H](Cc2ccccc2)NC(=O)[C@H](CC(C)C)NC1=O | Tyrosine-protein phosphatase non-receptor type 1 (PTPN1, Homo sapiens, UniProt P18031) | binding, BLI | – | – | 81 µM
C[C@H](NC(=O)[C@@H](N)Cc1ccc(O)cc1)C(=O)NCC(=O)N[C@@H](CO)C(=O)N[C@H](C(=O)N[C@@H](CC(=O)O)C(=O)N[C@@H](CCC(=O)O)C(=O)N[C@@H](CC(N)=O)C(=O)N[C@H](C(=O)N[C@@H](CC(=O)O)C(=O)N[C@@H](CO)C(=O)N[C@@H](CCC(=O)O)C(=O)O)[C@@H](C)O)[C@@H](C)OP(=O)(O)O | Bifunctional polynucleotide phosphatase/kinase, FHA domain (Homo sapiens, UniProt Q96T60) | binding, ITC | – | pH 7.5, 10 °C, PNK FHA domain | 10.6 µM
CC[C@H](C)[C@H](NC(=O)[C@H](C)NC(=O)[C@H](CC(=O)O)NC(=O)[C@H](CC(C)C)NC(=O)[C@H](CC(N)=O)NC(=O)[C@H](C)NC(C)=O)C(=O)N[C@H](C(=O)N[C@@H](CCCCN)C(=O)N[C@H](C(=O)N[C@@H](CCC(N)=O)C(=O)N[C@@H](C)C(=O)N[C@@H](Cc1c[nH]c2ccccc12)C(=O)N[C@@H](C)C(=O)N[C@@H](CCCNC(=N)N)C(=O)N[C@@H](CCSC)C(=O)N[C@@H](Cc1c[nH]c2ccccc12)C(=O)N[C@@H](C)C(=O)N[C@@H](C)C(=O)N[C@@H](CCCNC(=N)N)C(=O)N[C@@H](CCCNC(=N)N)C(=O)N[C@@H](CCC(N)=O)C(=O)N[C@@H](Cc1ccc(O)cc1)C(=O)N[C@@H](CC(C)C)C(N)=O)[C@@H](C)CC)[C@@H](C)CC | Calmodulin-1 (CALM1, Homo sapiens, UniProt P0DP23) | binding, native gel titration | – | 1 h, 22 °C, with: Ca2+, calmodulin 35 µM | 76 ± 18 µM
C[C@H](N)C(=O)N[C@@H](CCCNC(=N)N)C(=O)N[C@H](C(=O)N[C@@H](CCCCN)C(=O)N[C@@H](CCC(N)=O)C(=O)N[C@H](C(=O)N[C@@H](C)C(=O)N[C@@H](CCCNC(=N)N)C(=O)N[C@@H](CCCCN)C(=O)N[C@@H](CO)C(=O)N[C@H](C(=O)NCC(=O)O)[C@@H](C)O)[C@@H](C)O)[C@@H](C)OP(=O)(O)O | Baculoviral IAP repeat-containing protein 5.1-A (birc5.1-a, Xenopus laevis, UniProt Q8JGN5) | ITC | – | pH 7.8, 25 °C | 6.31 ± 0.58 µM
C[C@@H]1NC(=O)[C@H](CCCNC(=N)N)NC(=O)[C@H](Cc2ccc3ccccc3c2)NC(=O)[C@@H]2CCCCN2C(=O)[C@@H]([C@H](C)OP(=O)(O)O)NC(=O)CN(C)C(=O)[C@@H](C)NC(=O)c2cc3cc(c2)C(=O)NC[C@@H](C(=O)N[C@@H](CCCCN)C(N)=O)NC(=O)[C@H](CCCNC(=N)N)NC(=O)[C@H](CCCNC(=N)N)NC(=O)[C@H](CCCNC(=N)N)NC(=O)[C@H](CCCNC(=N)N)NC(=O)[C@H](Cc2ccc4ccccc4c2)NC(=O)[C@H](Cc2ccccc2)NC(=O)[C@H](CNC3=O)NC1=O | Peptidyl-prolyl cis-trans isomerase NIMA-interacting 1 (PIN1, Homo sapiens, UniProt Q13526, S16A/Y23A) | binding, fluorescence anisotropy | – | – | 0.13 ± 0.044 µM
N[C@@H](Cc1ccc(O)c(I)c1)C(=O)O | Iodotyrosine deiodinase (IYD, Thermotoga neapolitana, UniProt B9K712, F88A/W82A/Y112A) | FMN fluorescence quenching | – | 25 °C, Y112A/W82A/F88A variant | 0.9 ± 0.1 µM
CC[C@H](C)[C@H](NC(=O)[C@H](CS)NC(=O)[C@H](CCC(N)=O)NC(=O)[C@H](CC(C)C)NC(=O)[C@H](CCCCN)NC(=O)[C@H](CCCNC(=N)N)NC(=O)[C@H](C)NC(=O)[C@@H](NC(=O)[C@H](CCC(N)=O)NC(=O)[C@@H](NC(=O)[C@H](CCC(=O)O)NC(=O)[C@H](C)NC(=O)[C@H](CCC(N)=O)NC(=O)[C@@H](N)Cc1c[nH]cn1)C(C)C)[C@@H](C)CC)C(=O)N[C@@H](C)C(=O)N[C@@H](CC(=O)O)C(=O)N[C@@H](CCC(N)=O)C(=O)N[C@@H](Cc1ccccc1)C(=O)N[C@@H](Cc1c[nH]cn1)C(=O)N[C@@H](CCCNC(=N)N)C(=O)N[C@@H](CC(C)C)C(=O)N[C@@H](Cc1c[nH]cn1)C(=O)N[C@H](C(=O)N[C@@H](CCC(N)=O)C(=O)N[C@@H](CCC(N)=O)C(=O)O)C(C)C | Apoptosis regulator Bcl-2 (BCL2, Homo sapiens, UniProt P10415, D111A) | fluorescence polarization | – | fluorescently labelled compound | > 100 µM
O=C1SCCC1NC(C(=O)NCc1ccccc1)C1CC1 (stereo not drawn) | Thiosulfate sulfurtransferase (TST, Homo sapiens, UniProt Q16762) | binding, MST | – | – | 18.3 µM
O=C(Nc1cccc(-c2nn[nH]n2)c1)c1cc(-c2cc[nH]n2)cc(C(F)(F)F)c1 | Beta-lactamase CTX-M-27 | surface plasmon resonance | – | 25 °C | 1.95 ± 0.07 µM
COC(=O)[C@H](Cc1ccccc1)NC(=O)[C@@H]1CCCN1C(=O)[C@H](CCCCNC(=O)OCc1ccccc1)NC(=O)[C@H](C)NC(C)=O | Peptidyl-prolyl cis-trans isomerase NIMA-interacting 4 | binding, label-free Epic | PBS | pH 7.4, 0.5% DMSO | 28.2 ± 7 µM
O=C(Nc1cccc(-c2nn[nH]n2)c1)c1cc(-c2ncc[nH]2)cc(C(F)(F)F)c1 | Beta-lactamase CTX-M-27 | surface plasmon resonance | – | 25 °C | 1.33 ± 0.03 µM
C=Cc1c(C)c2cc3nc(cc4nc(cc5[nH]c(cc1[nH]2)c(C)c5CCC(=O)O)C(CCC(=O)OC)=C4C)C1(C)C3=CC=C(C(=O)OC)C1C(=O)OC (stereo not drawn) | Angiotensin-converting enzyme 2 (ACE2, Homo sapiens, UniProt Q9BYF1) | binding, BLI | – | – | 115 µM
CC(C)[C@H](NC(=O)[C@H](CCCNC(=N)N)NC(=O)[C@@H]1CCCN1C(=O)CNC(=O)[C@H](Cc1ccc(O)cc1)NC(=O)[C@@H](NC(=O)[C@H](C)NC(=O)[C@@H](NC(=O)CNC(=O)[C@H](CC(=O)O)NC(=O)[C@H](C)NC(=O)[C@H](Cc1c[nH]cn1)NC(=O)[C@@H](NC(=O)[C@@H](NC(=O)[C@@H](NC(=O)[C@H](CC(N)=O)NC(=O)[C@H](Cc1ccc(O)cc1)NC(=O)[C@H](C)NC(=O)[C@H](CC(N)=O)NC(=O)[C@@H](NC(=O)[C@H](CCCCN)NC(=O)[C@H](CO)NC(=O)[C@@H]1CCCN1C(=O)[C@H](CCCCN)NC(=O)[C@@H](N)CCCCN)[C@@H](C)O)C(C)C)[C@@H](C)O)[C@@H](C)O)[C@@H](C)O)[C@@H](C)O)C(=O)N[C@H](C(=O)N[C@@H](CCCCN)C(=O)O)[C@@H](C)O | FGA/FGB/FGG, D fragment (Homo sapiens, UniProt P02671+P02675+P02679, del433-453) | isothermal titration calorimetry | – | pH 7.4, 27 °C | 0.168 ± 0.0365 µM
CC[C@H](C)[C@H](NC(=O)CNC(C)=O)C(=O)N[C@@H](CCCNC(=N)N)C(=O)N[C@@H](CCC(=O)O)C(=O)N[C@@H](C)C(=O)N[C@H](C(=O)N[C@@H](CC(C)C)C(=O)N[C@@H](CCCNC(=N)N)C(=O)N[C@@H](C)C(=O)N[C@@H](Cc1c[nH]c2ccccc12)C(=O)N[C@@H](CCC(=O)O)C(=O)N[C@@H](CCCNC(=N)N)C(=O)N[C@@H](CCCNC(=N)N)C(=O)N[C@@H](Cc1ccc(O)cc1)C(=O)NCC(=O)N[C@@H](Cc1ccccc1)C(=O)N1CCC[C@H]1C(=O)N[C@@H](CCCNC(=N)N)C(=O)N1CCC[C@H]1C(=O)N[C@@H](CC(C)C)C(=O)N[C@@H](CCCNC(=N)N)C(=O)N[C@@H](CO)C(=O)N[C@@H](CCC(=O)O)C(N)=O)[C@@H](C)O | Antirepressor protein CarS (carS, Myxococcus xanthus, UniProt Q06911) | ITC | – | pH 7.5, 25 °C | 0.15 ± 0.04 µM
CC(C)C[C@H](NC(=O)CNC(=O)[C@@H](NC(=O)[C@H](CO)NC(=O)[C@H](CCCCN)NC(=O)[C@H](CC(C)C)NC(=O)C1(NC(=O)[C@H](CCC(=O)O)NC(=O)[C@H](CC(C)C)NC(=O)[C@@H](N)C(C)C)CC(C)(C)N([O])C(C)(C)C1)C(C)C)C(=O)N[C@@H](Cc1ccccc1)C(=O)O | Rhodopsin (RHO, Bos taurus, UniProt P02699) | – | – | – | 10 µM
CC(=O)N[C@@H](CO)C(=O)N[C@@H](Cc1ccccc1)C(=O)N[C@@H](CCC(=O)O)C(=O)N[C@@H](Cc1ccccc1Cl)C(=O)N1CCC[C@]12C=C[C@@H]1CC[C@@H](C(=O)N3CC[C@@H]4C=C[C@H]5CC[C@@H](C(=O)N[C@H](C(=O)N[C@@H](CCC(=O)O)C(=O)N[C@@H](CC(=O)O)C(=O)N[C@@H](CCC(=O)O)C(=O)N[C@@H](CC(C)C)C(N)=O)[C@@H](C)O)N5C(=O)[C@H]43)N1C2=O | Protein enabled homolog (ENAH, UniProt Q8N8S7) | binding, fluorescence | – | pH 7.3 | 0.15 µM
